Measured values from different studies.
Parts stem from different laboratories: compare values within a part only. Changes are numbered by the printed parent chain.

Series 1 — method: protein-binding microarray; form: double-stranded DNA, one strand shown; sample: in vitro; tested at: 940 nM top; setting: 60-bp whole probe; together with: salmon DNA 0.4 mg/ml; baseline: random background probes; reading: higher = stronger binding; all sequences stand within: GCCTAGCAC … GTCTTGATTCGCTTGACGCTGCTG
Target: Interferon regulatory factor 5, full length, phosphomimetic (IRF5, Homo sapiens, UniProt Q13568-2, residues 1-514, S451D/S453D/S456D/S462D)
Sequence	fitted relative affinity
TTAGGTATCGACTACCGGTTAGTGCTA	6.67 z-score
TCACTTATGATATATATAACTGTGCTA	0.728 z-score
TTAGGTTCCGGTTTCGGTTAGTGCTAG	9.51 z-score
GACGGTTTCGGTTCCGGGAAGTGCTAG	13.8 z-score
TTAGGTTTCGGGACTGAGTTAGTGCTA	7.9 z-score
TCAGCTTCCCAATTCTCACTGTGCTAG	0.938 z-score
GTCACTCTCAGAATCTCTCAGTGCTAG	1.68 z-score
TTAGATATCAGTATCGAATAGTGCTAG	1.58 z-score
GACGGTTTCGGCCTGGGGACGTGCTAG	8.77 z-score
TCATCACTCAATCTCAAACTGTGCTAG	0.699 z-score
GACGGTCTCGGTCTCGTGACGTGCTAG	3.66 z-score
GACGGTCTCGGTTTCGGGATGTGCTAG	6.57 z-score
TGGTGCTTAGTATTTTTTTCCGTGCTA	0.159 z-score
GACGGTATCGGTATCGGTACGTGCTAG	9.91 z-score
GACGGTTTCGACACTGGGGTCGTGCTA	7.99 z-score
TTCCATTTCTGTTTTTGCTTGTGCTAG	2.94 z-score

Series 2 — target: CCND2, cyclin fold, Cln2 fusion (human); method: yeast growth competition, sequencing; sample: yeast; setting: weak parent motif; baseline: not given; reading: higher = stronger binding
Starting sequence: FZR1 docking peptide (human); QDYERRLLRQIVI
Change	normalised enrichment score
R5K	-0.0246
E4A	0.133
D2A	0.0534
Q10A	-0.00228
R5A L7A	0.107
L8F	-0.134
L7A	0.425
Q1A	0.184
R5A	0.356
L8A	-0.0616

Series 3 — target: ATF7, bZIP domain (human); method: DHFR protein complementation; sample: yeast; baseline: wild-type JUN-FOS pair; reading: higher = stronger binding
Setting: single substitutions, most at no-binding floor
Starting sequence: JUN, bZIP domain (human); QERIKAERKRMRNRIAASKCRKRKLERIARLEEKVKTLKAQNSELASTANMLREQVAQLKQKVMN; partner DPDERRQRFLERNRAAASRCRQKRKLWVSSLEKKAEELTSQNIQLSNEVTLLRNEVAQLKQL
Change	binding fitness [natural log]
R30W	-0.929
L31V	-1.36
T37Y	-1.06
L38Q	-1.47
T48I	-1.02
S43P	-1.43
L52F	-1.46
R30T	-0.703
V56H	-1.42
K36C	-1.01
L38D	-1.12
A46H	-1.01
E44D	-1.05
K39E	-0.816
E32D	-1.32
S43I	-0.929
K39D	-1.23
L38Y	-1.38
N42C	-1.26
K39R	-0.803
E54Q	-1.23
E32F	-1.3

Series 4 — method: RNA Bind-n-Seq; form: RNA; sample: in vitro; tested at: 365 nM; baseline: no-protein control; reading: higher = stronger binding
Target: RNA binding protein fox-1 homolog 2, RRM domain, GST-SBP tag (RBFOX2, Homo sapiens, UniProt O43251-10, residues 100-194)
Setting: natural RNA segment, single round, ends assumed
All sequences stand within: GGGAGUUCUACAGUCCGACGAUC … UGGAAUUCUCGGGUGCCAA
Construct (chain): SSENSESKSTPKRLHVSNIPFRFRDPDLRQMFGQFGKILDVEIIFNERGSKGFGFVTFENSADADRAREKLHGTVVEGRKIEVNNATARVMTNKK
Sequence	RBNS enrichment (R)
GGGCAAAGGGGGAAAAGAAUGCCGUAGGGGACCACACCUAAGGGACCAAAAGAUACCCACUGUCACUGAAGCAUUGUACCCCUAACCUCUGUCUCCAUACCUUCCUCUCC	0.569
ACCAGUGCUGAAGAAUAAUGAGUGAGAACACUUAAUUUGAGAGUUAGACAAAUACAGCCCACUUUGGAUUUCAUCCUAGUGAACAGACUAAAACUUUGCAGUAAAAUACC	0.541
UUCUUUUAAUAUUUUAUUUUAAUUAAAAUUAGGAAAAAAUGUGUUCAACAAUUUUUUUUUUGUCCCAUCUUCUCCAAAUCAGUGGGAAAAGCUUACCUUUUGGUAUAUCU	0.895
CGCAUGCCUUUAAUCCCAGCACUCGGGAGGCAGAGGCAGGCGGAUUUUUGAGUUCAAGGGCAGCCUGGUCUACAAAGUGAGUUCCAGGACAGCCAGGGCUACACAGAGGA	0.337
ACAUGGUCACAUUAUUCCGUUCACAUUGGUCCUUGUGAGAACCUCACAGUCUGGAGGCGGCUGCUUUUGUACCUUCCUGCCUGCUACUAAUUCAGGGUCUCAUUUGGAAC	0.253
CAGCAACGUGAUCUGUAACUUGAUGUGGAGACGGGUGGUAGGACCCUGCUGAGGUUCAGAACUUUGAACCCUCAGGUUCUCCUGGGUUUACUUCACCUGAGGGAAUAGCC	1.67
UGUAUAACAGAUUAUUGUUCAUACUUGUAAAGCAUCUUAUGUCAUUGAGAAUAUAAAGAACAGUGCCUUAGAAGACAGUGAAAGGUAAGCUCUAGCUUAAUGUCUAUGAU	0.41
UGUUUUGUUUUCCUCCCUUUUCUCUUGAAUUUUAGCAUCCACAUAAAUUAUGCUUCCAACCUUGUAUAGGUUUGUAAGCUUGCCCAGAAGUGAGACCACUGUUGAAGUAC	0.433
AGUUACUGACUGCUUUAGGCAUAGUCUCCGCAGAAGCCUCGUGUGUCCAGUGCUGGGUGUUUGGGUGCUUCUGUACCAGCCGUCCCCAAGCAGGGCUAAGGCACCUUGAA	0.257
CUCUGAGAGGAAGUGUGGAGAGUCUCCAUCCAACUCUGCUCCUACUGAGUAAAGUCCCCUUCCCUCCAGAGUGUCACAGAGACACUAGAAUGUCAGGUGCUCUUGUCUGA	0.837
CCUAACGCUGCAUCAACGGGAGGGAGGGUCCUGAAAGAGACCCAUCUGGGCCUGUCUGAACCCCUCGUUCUUCAUGUUUAGGUGAAUAUGAAUAUGUUAAAGCUGGUGGC	0.651
UAAGGGAUAUUGGGAAAAGUUUUGGUGUGUUUCUGUUGAUUUCUUUUUUGUAUGCUGUGAUAAAAGAGAAAUGAAAAGUGCCAGUCACUGUGUGGUGUCUAGGAAAAUCA	1.85

Series 5 — method: universal PBM; form: double-stranded DNA, one strand shown; sample: in vitro; tested at: 600 nM; reading: higher = stronger binding
Target: Sal-like protein 4, full length isoform A (SALL4, Homo sapiens, UniProt Q9UJQ4, residues 1-1053)
UniProt Q9UJQ4, sequence (whole entry, looked up): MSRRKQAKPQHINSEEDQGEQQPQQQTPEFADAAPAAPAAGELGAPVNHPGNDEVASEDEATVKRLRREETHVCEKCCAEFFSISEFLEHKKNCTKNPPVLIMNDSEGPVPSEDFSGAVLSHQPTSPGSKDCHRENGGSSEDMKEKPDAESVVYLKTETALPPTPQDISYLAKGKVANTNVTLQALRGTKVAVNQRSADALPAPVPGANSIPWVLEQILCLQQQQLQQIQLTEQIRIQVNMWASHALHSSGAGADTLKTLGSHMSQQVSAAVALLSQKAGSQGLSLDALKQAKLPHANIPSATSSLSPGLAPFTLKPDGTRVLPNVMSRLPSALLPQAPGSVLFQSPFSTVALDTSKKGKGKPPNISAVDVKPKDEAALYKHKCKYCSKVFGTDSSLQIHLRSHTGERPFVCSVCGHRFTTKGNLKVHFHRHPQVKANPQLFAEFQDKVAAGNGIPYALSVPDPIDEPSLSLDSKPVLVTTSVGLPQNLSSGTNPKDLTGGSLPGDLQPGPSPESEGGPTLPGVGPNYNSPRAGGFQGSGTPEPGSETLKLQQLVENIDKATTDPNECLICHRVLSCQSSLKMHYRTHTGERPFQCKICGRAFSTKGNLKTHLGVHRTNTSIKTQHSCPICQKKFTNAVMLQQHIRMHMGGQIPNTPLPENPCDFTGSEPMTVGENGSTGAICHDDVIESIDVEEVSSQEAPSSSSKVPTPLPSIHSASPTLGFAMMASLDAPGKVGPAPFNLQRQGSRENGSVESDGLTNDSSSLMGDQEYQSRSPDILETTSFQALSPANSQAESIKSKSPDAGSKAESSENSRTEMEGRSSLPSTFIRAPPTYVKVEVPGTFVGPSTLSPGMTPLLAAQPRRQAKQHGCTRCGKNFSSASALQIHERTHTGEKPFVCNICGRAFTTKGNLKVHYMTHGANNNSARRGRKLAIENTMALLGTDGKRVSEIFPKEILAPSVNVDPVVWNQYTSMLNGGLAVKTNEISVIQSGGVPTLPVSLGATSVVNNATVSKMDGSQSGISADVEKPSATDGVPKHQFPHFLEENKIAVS
Setting: 8-mer, flanks averaged, mean of replicates
Sequence	E-score
AACGCAAA	0.113
AAGAAGAG	0.0749
AATAAGCC	0.193
CATTCAGG	0.0175
CGCGGTAC	-0.281
AACCCTAG	-0.0312
ACGTACCT	-0.045
AAGGCTAT	0.0613
ACAGCAAC	-0.0177
GCGCGGGA	-0.259
AAGTGTCA	-0.0186
AGCAGAGA	-0.0477
CTAGTCTA	0.0156
CCCGCCTA	-0.0494
GCTTAACC	-0.108
ATTGCTCC	-0.127
CTAAGGTA	0.0228
GGGAAGAA	-0.12
TCAGATAA	0.202
AATTCGCC	-0.0333
AGTCACGC	-0.176
ACTCGAAG	-0.0621
CTCATAAG	0.249
CCGGATCG	-0.316
ATAGTTAG	0.184

Series 6 — method: protein binding microarray; form: double-stranded DNA, one strand shown; sample: in vitro; tested at: not given; baseline: not given; reading: higher = stronger binding
Target: Histone acetyltransferase KAT6A, both winged helices, GST fusion (KAT6A, Homo sapiens, UniProt Q92794, residues 1-181)
Setting: 8-mer, flanks averaged, mean of 2 arrays, mostly near background
Residues (chain): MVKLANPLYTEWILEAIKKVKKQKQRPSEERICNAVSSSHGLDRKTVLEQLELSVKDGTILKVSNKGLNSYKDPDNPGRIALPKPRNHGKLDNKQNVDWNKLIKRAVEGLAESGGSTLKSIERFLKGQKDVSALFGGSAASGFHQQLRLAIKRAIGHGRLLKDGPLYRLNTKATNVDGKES
Sequence	E-score
CAGGATAG	-0.0558
CACCATGA	0.0133
CGGCGCCG	0.41
GGTGCGGA	0.126
TAATGATA	0.0237
GGGTAAGA	-0.18
CGTGTTAA	0.0141
TACCGGCA	0.217
CATCCTCC	-0.0165
AATAGGCG	0.111
AATACGGA	0.227
GCGGGTCA	0.184
ACATAAGC	0.0362
ATGGCAGG	-0.124
AGATCATG	-0.0658
ATGCTAGC	0.00656
ATTTGTAC	0.00481
AGTATAAG	-0.132
AGGTTGTA	-0.0381
CAACAGCG	0.174
CCTTTACA	-0.0942
AAAGCATG	-0.0522
CAACGTGA	-0.0986
TCGATAGA	-0.132
CGCGGGGA	0.32

A few entries again (series 5):
Sequence	E-score
AACCCTAG	-0.0312
AAGGCTAT	0.0613
AAGAAGAG	0.0749
CTCATAAG	0.249
AACGCAAA	0.113
AATAAGCC	0.193
CTAGTCTA	0.0156
